Published values pooled from the literature.
Each numbered part is a random draw from the data of one study; scales do not carry over between parts. Substitutions count along the parent as printed.

Set 1 — technique: competition protein-binding microarray; form: double-stranded DNA, one strand shown; medium: in vitro; tested at: 2 µM; with: Pho4 competitor, 0.05 µM; direction: higher = stronger binding; quantity: fluorescence intensity; constant ends, left off below: … GTCTTGATTCGCTTGACGCTGCTG
Target: Centromere-binding protein 1, full length, His-tagged (CBF1, Saccharomyces cerevisiae, UniProt P17106, residues 1-351)
Chain of UniProt P17106 (whole entry, looked up): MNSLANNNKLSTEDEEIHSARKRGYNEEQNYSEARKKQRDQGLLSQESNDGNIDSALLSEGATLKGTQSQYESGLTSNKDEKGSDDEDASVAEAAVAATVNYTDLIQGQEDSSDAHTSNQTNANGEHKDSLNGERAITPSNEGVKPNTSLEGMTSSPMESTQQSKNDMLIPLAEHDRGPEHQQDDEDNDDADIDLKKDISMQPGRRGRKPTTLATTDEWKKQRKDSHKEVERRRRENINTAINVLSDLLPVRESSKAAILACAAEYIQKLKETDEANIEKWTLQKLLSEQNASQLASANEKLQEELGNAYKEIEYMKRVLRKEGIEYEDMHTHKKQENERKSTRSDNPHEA
Setting: whole 60-bp probe, lowest competitor level
CCCTTGTCATTTTCCCAGGTGACGCTGAATTGTATG: 143 a.u.
CTCGTCTGACGCGGAAACGTGCGGAAAAAAATCTCC: 111 a.u.
CGGGGTTAAGTTTTTCACGTGATGTGCTTGCAGCAG: 3230 a.u.
CTAACGAAGGTTTGAATAGTGGGTGACAAGCCAAGT: 76.7 a.u.
CGAAGTTATTTGTCTAGCATGATAAGGTACAATGCC: 75.6 a.u.
CTTCTGTAAATTTGGCACGTGGGTGGACGCGCCCCG: 1290 a.u.
CATACCCAACCTTGGGTGGTGGGTGAAGATATTTGT: 54.1 a.u.
CTAACGAAGGTTTGGAGTGTGGGTGACAAGCCAAGT: 69.7 a.u.
CTTTGCACAATGCATTACGTGGGACCACATCCCTTT: 59.8 a.u.
CTTCTGTAAATTTGAGACGTGGGTGGACGCGCCCCG: 67 a.u.
CAATGTCCATTTTAGCACGTGGGACTTGTTCTGTGG: 1480 a.u.
CGTCCTAGTGATTTTCACGTGTCATCCATGAGGAAG: 972 a.u.
GTAGTTCCCAGTCTTTTCGTGATGGTCAACTTAACG: 69 a.u.
AGGGTCTGATCCCTTCCCGTGGGTAGACCGATGACC: 63.5 a.u.
CTTCTGTAAATTTTTCACGTGCTCTGACGCGCCCCG: 987 a.u.
GTCTTGTCTCATTGTTATGTGGGTGTCCCCACTTCA: 87.6 a.u.
TGTATCCTATACAATCACGGGCGACGGACAAGACCC: 121 a.u.
GCAATCCGAGCTTGACACATGGTTTCTGGAGGTCTG: 90.2 a.u.
AAATTACTAAGTTGTGAGGTGGGTGACGCCGTATGA: 77.2 a.u.

Set 2 — technique: Sort-seq; measured: YFP reporter; medium: E. coli; setting: PhoQ-PhoP variant library; with: 10 µM Mg2+; baseline: high Mg2+ state; direction: higher = stronger signaling; quantity: fold induction
Substance: PhoQ, residues 284 288 289 292 302 303 DDMDFR
PhoP, residues 12 14 15 18 19 QYFSL (Escherichia coli, UniProt P23836): 0.591
PhoP, residues 12 14 15 18 19 NYFRM (Escherichia coli, UniProt P23836): 0.939
PhoP, residues 12 14 15 18 19 TQALL (Escherichia coli, UniProt P23836): 0.627

Set 3 — technique: protein-binding microarray; form: double-stranded DNA, one strand shown; medium: in vitro; tested at: 2200 nM top; setting: 60-bp whole probe; with: salmon DNA 0.4 mg/ml; baseline: random background probes; direction: higher = stronger binding; quantity: fitted relative affinity; constant ends, left off below: GCCTAGCAC … GTCTTGATTCGCTTGACGCTGCTG
Target: Interferon regulatory factor 7, full length, phosphomimetic (IRF7, Homo sapiens, UniProt Q92985, residues 1-503, S471D/S472D/S475D/S476D/S477D/S483D/S484D/S487D)
Construct (chain): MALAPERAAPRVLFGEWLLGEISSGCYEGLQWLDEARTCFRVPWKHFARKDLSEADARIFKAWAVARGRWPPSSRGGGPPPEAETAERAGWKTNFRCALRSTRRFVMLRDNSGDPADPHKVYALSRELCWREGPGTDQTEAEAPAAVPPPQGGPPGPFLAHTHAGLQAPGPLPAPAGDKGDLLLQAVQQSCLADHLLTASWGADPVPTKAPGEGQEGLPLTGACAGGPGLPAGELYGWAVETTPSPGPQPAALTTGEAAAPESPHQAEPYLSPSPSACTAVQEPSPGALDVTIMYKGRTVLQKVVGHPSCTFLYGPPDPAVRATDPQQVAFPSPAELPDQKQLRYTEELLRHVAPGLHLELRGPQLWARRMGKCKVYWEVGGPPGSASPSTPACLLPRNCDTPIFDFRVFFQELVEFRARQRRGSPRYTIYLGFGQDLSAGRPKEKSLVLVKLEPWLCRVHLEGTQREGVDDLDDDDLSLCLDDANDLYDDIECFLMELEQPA
GTGTTTTCATTTTATGACAGCGTGCTA: 5.12 z-score
TACGGACTGGGGTATCGGGACGTGCTA: -0.54 z-score
GACGATATCGGGTGTCGAGACGTGCTA: 0.0614 z-score
GACGATATCAGTATCGAGATGTGCTAG: 0.225 z-score
TCAGGTTTCTATATTTGACTGTGCTAG: 1.92 z-score
TTAGGACTGCTTTTCCTTCAGTGCTAG: 1.22 z-score
TTAGGTATCGGTTTCGGCTAGTGCTAG: 3.71 z-score
TCAACTTTGGCATGTCTTACTGTGCTA: 0.544 z-score
ACTAATTTTCAATTCCTGAAGTGCTAG: 1.77 z-score
TACGATTTCGGGACTGGAGACGTGCTA: 1.55 z-score
CAGGCAGGAGAAGTGAATGAGTGCTAG: -1.23 z-score
AATCATTTTCGTTTTTATTAGTGCTAG: 10.8 z-score
GACTGTTTCCTTTCCCTGACGTGCTAG: 4.2 z-score
TTAGATTTCAGCCTGGATTAGTGCTAG: -0.0327 z-score
TTAGGTATCCTTATCCTTTCGTGCTAG: 1.54 z-score
GACGGTAACGACTTTCGGGACGTGCTA: 2.44 z-score
AATGTTTTGTTTTTCATTATGTGCTAG: 3.01 z-score
CCAATTCTTTTTATGCTTTCGTGCTAG: 2.3 z-score
TTAGATATAGGGTATCGATTAGTGCTA: -0.497 z-score
TCACATTTCCAATTACCACTGTGCTAG: 2.82 z-score
GAGGATCTCAGTTTCGAGACGTGCTAG: 3.28 z-score
TTACAATTTGCTTTAGTCATGTGCTAG: 1.37 z-score
TCATGAACCATTTTGGTACTGTGCTAG: 0.319 z-score

Set 4 — target: CCND2, cyclin fold, Cln2 fusion (human); technique: yeast growth competition, sequencing; medium: yeast; setting: weak parent motif; baseline: not given; direction: higher = stronger binding; quantity: normalised enrichment score
Starting sequence: CABLES2 docking peptide (human); ICAKRSLCAAFSV
R5A: -0.313
I1A: -0.575
S12A: -0.0898
C8A: -0.27
V13A: -0.329

Set 5 — technique: RNA Bind-n-Seq; form: RNA; medium: in vitro; tested at: 200 nM; setting: whole 134-nt RNA, ends assumed; with: 150 mM KCl; baseline: input library; direction: higher = stronger binding; quantity: log2 enrichment
Target: Fragile X messenger ribonucleoprotein 1, C-terminal low-complexity region (Fmr1, Mus musculus, UniProt P35922)
Constant ends, left off below: GGGAGUUCUACAGUCCGACGAUC … UGGAAUUCUCGGGUGUCAAGG
UGGUCAUGGGAUGGAGAACCAGUUCUUCCCUUAUAUCUUCACCAUAUGACUAUUGACCCUGUCUUAGGCUGCUCCCAGGCCGUUCCAUUG: 1.23
AGUCCUGUGCUACACAUCGUAUGUACCGAAUCGGGUUUUUUUGGGUUUUUGGGUGGGAAAGUAUUAUGUUACGCCGUUCGGAUCUGCACU: 0.76
GUCCUGUGCUACACAUCGUAUGUACCGAAUCGGGUUUUUUUGGGUUUUUGGGAAAGGGAAAGUAUUAUGUUACGCCGUUCGGAUCUGCAC: -0.0886
UAUUAAUUUGAUAUAUUUAUUAUGAUUUGUAGAGGACGUCGGUGAUGAAGGAGAAGAAGAAAAAGAAUUCAUUUCCUAUAACAUCAACAU: -2.03
GCAGGAAGUAAAAACAAAUGGAAAUGCUUCGGAUUGUGGCAGGGGUGGGGGUUGCUAAGGAAAGGGUGGGAUGGGAGUGGGUAAAGAGUU: 0.27
GUCCUGUGCUACACAUCGUAUGUACCGAAUCGGGUUUUUUUGGGUUUUUGGGUUUGGGAAAGUAUUAUGUUACGCCGUUCGGAUCUGCAC: 0.0556
UGAACCUUCCAAUAGCAACCAAGAAAUAAACUCUGAUGACAGACGACCCCAAUGGAGACGAGAAGACCGAAUUCCUUACCAAGACAGAGA: 0.402
CUCAAGUCCUGUGCUACACAUCGUAUGUACCGAAUCGGGGAAGGGAAGGGAAGGAAAGUAUUAUGUUACGCCGUUCGGAUCUGCACUUCC: 0.0351
CCUGUGCUACACAUCGUAUGUACCGAAUCAAAUUUUUUUAAACCCCCAAACCCCCCCAAAAAAGUAUUAUGUUACGCCGUUCGGAUCUGC: -0.189
AGUCCUGUGCUACACAUCGUAUGUACCGAAUCGGGGAAAAAGGGGUUUGGGGAGGGGAAAGUAUUAUGUUACGCCGUUCGGAUCUGCACU: 0.576
UCCUGUGCUACACAUCGUAUGUACCGAAUCGGGUUUUUUUGGGAAAAAGGGAAAAAGGGAAAGUAUUAUGUUACGCCGUUCGGAUCUGCA: -0.393
AGUCCUGUGCUACACAUCGUAUGUACCGAAUCGGGAAAAAAAGGGUUUGGGAAAGGGAAAGUAUUAUGUUACGCCGUUCGGAUCUGCACU: -0.0468
CCUGUGCUACACAUCGUAUGUACCGAAUCAAACCCCCAAAUUUUUUUAAACCCCCCCAAAAAAGUAUUAUGUUACGCCGUUCGGAUCUGC: 0.0285
UUUACCCCUCACUGGAGUCAGAUGAAGACAACCCCAUCUUUAAGUCCCGGUCGAAGAAAAGGAAAGGCUCAGACGACGCUCCCUACAGCC: -0.0807

A few entries again (set 5):
CCUGUGCUACACAUCGUAUGUACCGAAUCAAACCCCCAAAUUUUUUUAAACCCCCCCAAAAAAGUAUUAUGUUACGCCGUUCGGAUCUGC: 0.0285
UGGUCAUGGGAUGGAGAACCAGUUCUUCCCUUAUAUCUUCACCAUAUGACUAUUGACCCUGUCUUAGGCUGCUCCCAGGCCGUUCCAUUG: 1.23
CUCAAGUCCUGUGCUACACAUCGUAUGUACCGAAUCGGGGAAGGGAAGGGAAGGAAAGUAUUAUGUUACGCCGUUCGGAUCUGCACUUCC: 0.0351
GUCCUGUGCUACACAUCGUAUGUACCGAAUCGGGUUUUUUUGGGUUUUUGGGAAAGGGAAAGUAUUAUGUUACGCCGUUCGGAUCUGCAC: -0.0886
GCAGGAAGUAAAAACAAAUGGAAAUGCUUCGGAUUGUGGCAGGGGUGGGGGUUGCUAAGGAAAGGGUGGGAUGGGAGUGGGUAAAGAGUU: 0.27
UGAACCUUCCAAUAGCAACCAAGAAAUAAACUCUGAUGACAGACGACCCCAAUGGAGACGAGAAGACCGAAUUCCUUACCAAGACAGAGA: 0.402
AGUCCUGUGCUACACAUCGUAUGUACCGAAUCGGGGAAAAAGGGGUUUGGGGAGGGGAAAGUAUUAUGUUACGCCGUUCGGAUCUGCACU: 0.576
CCUGUGCUACACAUCGUAUGUACCGAAUCAAAUUUUUUUAAACCCCCAAACCCCCCCAAAAAAGUAUUAUGUUACGCCGUUCGGAUCUGC: -0.189
GUCCUGUGCUACACAUCGUAUGUACCGAAUCGGGUUUUUUUGGGUUUUUGGGUUUGGGAAAGUAUUAUGUUACGCCGUUCGGAUCUGCAC: 0.0556
UAUUAAUUUGAUAUAUUUAUUAUGAUUUGUAGAGGACGUCGGUGAUGAAGGAGAAGAAGAAAAAGAAUUCAUUUCCUAUAACAUCAACAU: -2.03
